Experimental data collected from several papers.
Each numbered part is a random draw from the data of one study; scales do not carry over between parts. Substitutions count along the parent as printed.

Sample 1 — method: DHFR PCA, deep sequencing; matrix: yeast; added: (+)-ABA 0 µM; relative to: wild-type fitted maximum; direction: higher = stronger binding
Target: ABI1, truncated, D143A, DHFR fusion (Arabidopsis thaliana)
Notes: methotrexate growth selection, single substitutions
Parent: PYL1, truncated, DHFR fusion (Arabidopsis thaliana); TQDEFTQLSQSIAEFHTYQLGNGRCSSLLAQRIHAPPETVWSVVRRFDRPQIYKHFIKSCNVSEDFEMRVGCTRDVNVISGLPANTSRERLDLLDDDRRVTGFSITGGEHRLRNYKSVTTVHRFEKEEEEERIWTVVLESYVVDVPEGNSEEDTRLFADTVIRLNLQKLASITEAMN
Change | relative binding score [%]
S63K | 21.1
E174S | -0.668
V78P | 0.321
E131H | 47.5

Sample 2 — method: RNA Bind-n-Seq; molecule type: RNA; matrix: in vitro; concentration: 200 nM; notes: whole 134-nt RNA, ends assumed; added: 150 mM KCl; relative to: input library; direction: higher = stronger binding
Target: Ras GTPase-activating protein-binding protein 1, full length (G3BP1, Homo sapiens, UniProt Q13283)
Chain of UniProt Q13283 (whole entry, looked up): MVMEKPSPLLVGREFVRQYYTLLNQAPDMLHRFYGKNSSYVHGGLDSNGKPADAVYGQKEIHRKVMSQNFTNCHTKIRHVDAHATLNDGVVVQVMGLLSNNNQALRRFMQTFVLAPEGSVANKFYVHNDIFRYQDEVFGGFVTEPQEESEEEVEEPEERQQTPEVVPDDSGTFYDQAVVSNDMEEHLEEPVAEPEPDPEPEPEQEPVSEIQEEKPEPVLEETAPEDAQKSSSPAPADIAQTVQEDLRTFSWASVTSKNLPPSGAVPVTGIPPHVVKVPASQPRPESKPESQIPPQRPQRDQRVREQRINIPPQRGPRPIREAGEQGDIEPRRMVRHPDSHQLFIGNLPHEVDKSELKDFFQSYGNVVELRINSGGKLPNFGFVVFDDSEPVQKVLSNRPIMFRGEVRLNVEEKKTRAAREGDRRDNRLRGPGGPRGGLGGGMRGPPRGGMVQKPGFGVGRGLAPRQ
All sequences stand within: GGGAGUUCUACAGUCCGACGAUC … UGGAAUUCUCGGGUGUCAAGG
Strand | log2 enrichment
CAAGUCCUGUGCUACACAUCGUAUGUACCGAAUCGGUUUUUGGAAAAAGGUUUGGAAAGUAUUAUGUUACGCCGUUCGGAUCUGCACUUC | -1.37
CAAGUCCUGUGCUACACAUCGUAUGUACCGAAUCGGAAAGGUUUGGAAAAAAAGGAAAGUAUUAUGUUACGCCGUUCGGAUCUGCACUUC | -1.02
AAGUCCUGUGCUACACAUCGUAUGUACCGAAUCGGGGAAAAGGGGAAAAGGAAAAGGAAAGUAUUAUGUUACGCCGUUCGGAUCUGCACU | -0.49
CAAGUCCUGUGCUACACAUCGUAUGUACCGAAUCGGCCCCGGCCCCGGCCCCGGGAAAGUAUUAUGUUACGCCGUUCGGAUCUGCACUUC | -0.834
UGGCCCUGGUGGCAUGCGGGGAGGAAGAGGUGGCCUUAUGGAUCGUGGUGGUCCCGGUGGAAUGUUCAGAGGUGGCCGUGGUGGAGACAG | 0.537

Sample 3 — method: universal PBM; molecule type: double-stranded DNA, one strand shown; matrix: in vitro; concentration: 600 nM; direction: higher = stronger binding
Target: Sal-like protein 4, full length isoform A (SALL4, Homo sapiens, UniProt Q9UJQ4, residues 1-1053)
Chain of UniProt Q9UJQ4 (whole entry, looked up): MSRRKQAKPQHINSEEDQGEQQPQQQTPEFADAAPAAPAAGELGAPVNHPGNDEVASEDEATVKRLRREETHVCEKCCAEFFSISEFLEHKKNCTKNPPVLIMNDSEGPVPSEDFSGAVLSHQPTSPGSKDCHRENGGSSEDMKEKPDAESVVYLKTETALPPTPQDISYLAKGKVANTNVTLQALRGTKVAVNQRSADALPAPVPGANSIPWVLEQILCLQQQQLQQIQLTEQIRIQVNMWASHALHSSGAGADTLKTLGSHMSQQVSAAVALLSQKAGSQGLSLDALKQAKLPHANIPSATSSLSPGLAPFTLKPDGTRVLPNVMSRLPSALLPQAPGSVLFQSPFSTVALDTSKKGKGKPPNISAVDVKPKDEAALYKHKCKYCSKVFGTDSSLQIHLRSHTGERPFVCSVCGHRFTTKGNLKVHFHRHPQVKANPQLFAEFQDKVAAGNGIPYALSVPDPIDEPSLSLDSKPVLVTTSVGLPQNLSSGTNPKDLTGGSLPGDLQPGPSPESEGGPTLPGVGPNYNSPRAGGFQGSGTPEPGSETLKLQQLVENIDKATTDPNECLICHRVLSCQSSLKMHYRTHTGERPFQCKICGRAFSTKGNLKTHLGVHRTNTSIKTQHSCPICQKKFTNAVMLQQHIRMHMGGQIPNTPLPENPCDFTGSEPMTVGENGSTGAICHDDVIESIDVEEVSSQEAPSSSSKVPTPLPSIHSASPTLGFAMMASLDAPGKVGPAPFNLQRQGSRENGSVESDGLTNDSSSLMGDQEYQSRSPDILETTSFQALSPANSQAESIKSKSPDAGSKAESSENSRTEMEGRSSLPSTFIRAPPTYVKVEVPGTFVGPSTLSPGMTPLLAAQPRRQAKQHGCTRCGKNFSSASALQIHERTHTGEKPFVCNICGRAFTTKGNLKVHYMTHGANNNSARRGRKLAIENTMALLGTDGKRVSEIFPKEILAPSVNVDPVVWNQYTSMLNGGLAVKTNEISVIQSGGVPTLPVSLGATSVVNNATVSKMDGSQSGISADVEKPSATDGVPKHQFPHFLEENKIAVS
Notes: 8-mer, flanks averaged, mean of replicates
Strand | E-score
CTTACCGC | -0.258
AACACATA | 0.322
CCATAGCG | -0.0972
ACCGTCGG | -0.32
AGCGGCTC | -0.289

Further values, each from its own experiment
Substance | target | assay | system | conditions | scale | endpoint | value
PhoQ, residues 284 288 289 292 302 303 TLSLKA | PhoP, residues 12 14 15 18 19 TPWLV (Escherichia coli, UniProt P23836) | Sort-seq, refers to: YFP reporter | E. coli | PhoQ-PhoP variant library, added: 10 µM Mg2+ | relative to: high Mg2+ state, higher = stronger signaling | fold induction | 6.12

Excerpt of the above (sample 2):
Strand | log2 enrichment
AAGUCCUGUGCUACACAUCGUAUGUACCGAAUCGGGGAAAAGGGGAAAAGGAAAAGGAAAGUAUUAUGUUACGCCGUUCGGAUCUGCACU | -0.49
UGGCCCUGGUGGCAUGCGGGGAGGAAGAGGUGGCCUUAUGGAUCGUGGUGGUCCCGGUGGAAUGUUCAGAGGUGGCCGUGGUGGAGACAG | 0.537
